{"data": "Results pooled from the literature", "cell line": "HeLa", "note": "Each line is one published result; not all experiments were run side by side."}
{"SMILES": "C=C1C(=O)O[C@H]2[C@H]1[C@H](OC(=O)[C@@]1(C)O[C@H]1C)[C@@H](OC(C)=O)/C(C(=O)OC)=C\\CC[C@@]1(C)O[C@H]21", "effect on": "cell growth or viability", "time": "24 h", "IC50 [µM]": 13.6}
{"SMILES": "CCC(O)CC(=O)O[C@@H]1C[C@@H]2[C@@]3(C)CCC[C@](C)(CC)[C@@H]3CC[C@@]2(C)[C@@H]2C[C@@H](O)C3=C(C(=O)O[C@H]3C)[C@@]12C (stereo partly shown)", "effect on": "cell growth or viability", "method": "CCK-8", "time": "24 h", "IC50 [µM]": "≤ 25"}
{"SMILES": "CC(=O)O[C@H]1C(=O)[C@@]2(C)[C@H]([C@H](OC(=O)c3ccccc3)[C@]3(O)C[C@H](OC(=O)[C@H](O)[C@@H](NC(=O)c4ccccc4)c4ccccc4)C(C)=C1C3(C)C)[C@]1(OC(C)=O)CO[C@@H]1C[C@@H]2O", "effect on": "cell growth or viability", "time": "24 h", "IC50 [µM]": 0.055}
{"SMILES": "CC(=NNC(N)=S)C(C)=NNC(N)=S", "effect on": "cell growth or viability", "method": "MTT", "IC50 [µM]": "> 20"}
{"SMILES": "COc1cc([C@@H]2c3cc4c(cc3[C@@H](O[C@@H]3O[C@@H]5CO[C@@H](C)O[C@H]5[C@H](O)[C@H]3O)[C@H]3COC(=O)[C@H]23)OCO4)cc(OC)c1O", "effect on": "cell growth or viability", "time": "24 h", "IC50 [µM]": 12.5}
{"SMILES": "O=c1c(O)c(-c2ccc(O)c(O)c2)oc2cc(O)ccc12", "effect on": "cell growth or viability", "method": "MTT", "time": "72 h", "IC50 [µM]": 60.5}
{"SMILES": "CCOC(=O)c1[nH]cc2c1NC1=C(C(=O)CCC1)[C@H]2c1cccc(Oc2nc3ccccc3[nH]2)c1", "effect on": "cell growth or viability", "method": "ATP luminescence", "time": "72 h", "IC50 [µM]": "< 0.01"}
{"SMILES": "C=C1C(=O)O[C@H]2[C@H]1CC/C(C)=C/CC[C@@]1(C)O[C@@H]21", "effect on": "cell growth or viability", "time": "48 h", "IC50 [µM]": 16.6}
{"SMILES": "O=C1c2ccc(O)cc2O[C@H](c2ccc(O)c(O)c2)[C@H]1O", "effect on": "cell growth or viability", "method": "MTT", "time": "72 h", "IC50 [µM]": "> 400"}
{"SMILES": "O=C1NCCc2c(OCCCCN3CCCCC3)cccc21", "effect on": "H1R promoter reporter gene", "setting": "p65 construct, region B1 only, pretreatment 1 h", "with": "PMA 100 nM for 10 h", "IC50 [µM]": 64}
{"SMILES": "CC(C=NN=C(N)[S-])=NN=C(N)[S-].NCc1ccccc1.NCc1ccccc1.O=[N+]([O-])[O-].[Co+3]", "effect on": "cell growth or viability", "method": "MTT", "IC50 [µM]": "~8.6"}
{"SMILES": "O=C(Cn1cc(COc2ncnc3[nH]cnc23)nn1)NCc1ccc(O)cc1", "effect on": "cell growth or viability", "method": "MTT", "IC50 [µM]": 6.02}
{"SMILES": "COc1cc2c(cc1O)CC[C@@H]1[C@@H]2CC[C@]2(C)[C@@H](O)CC[C@@H]12", "effect on": "cell growth or viability", "method": "MTT", "time": "48 h", "IC50 [µM]": 0.993}
{"SMILES": "O=C1c2c(O)cc(O)cc2OC(c2ccc(O)c(O)c2)C1O (stereo not shown)", "effect on": "cell growth or viability", "method": "MTT", "time": "72 h", "IC50 [µM]": 195}
{"SMILES": "C=C1C(=O)O[C@@H]2/C=C(\\C)CC/C=C(/C(=O)OC)[C@H](OC(C)=O)[C@@H](OC(=O)[C@]3(C)O[C@@H]3C)[C@@H]12", "effect on": "cell growth or viability", "time": "24 h", "IC50 [µM]": 12.7}
{"SMILES": "Cc1cncc(NC(=O)Cn2cc(COc3ncnc4[nH]cnc34)nn2)c1", "effect on": "cell growth or viability", "method": "MTT", "IC50 [µM]": 7.1}
{"SMILES": "CO[C@@]12[C@H](COC(N)=O)C3=C(C(=O)C(C)=C(N)C3=O)N1C[C@@H]1N[C@@H]12", "effect on": "cell growth or viability", "time": "24 h", "IC50 [µM]": 2.41}
{"SMILES": "CC(=NN=C(N)[S-])C(C)=NN=C(N)[S-].NCc1ccccc1.NCc1ccccc1.O=[N+]([O-])[O-].[Co+3]", "effect on": "cell growth or viability", "method": "MTT", "IC50 [µM]": "> 500"}
{"SMILES": "CCOP(=O)(OCC)[C@@H]1C[C@@H](Cn2c(=O)n(C(=O)c3ccc(F)cc3)c(=O)c3ccccc32)ON1C (relative stereo)", "effect on": "cell growth or viability", "time": "96 h", "IC50 [µM]": "> 250"}
{"note": "Excerpt of the above:"}
{"SMILES": "CCC(O)CC(=O)O[C@@H]1C[C@@H]2[C@@]3(C)CCC[C@](C)(CC)[C@@H]3CC[C@@]2(C)[C@@H]2C[C@@H](O)C3=C(C(=O)O[C@H]3C)[C@@]12C (stereo partly shown)", "effect on": "cell growth or viability", "method": "CCK-8", "time": "24 h", "IC50 [µM]": "≤ 25"}
{"SMILES": "CC(=NNC(N)=S)C(C)=NNC(N)=S", "effect on": "cell growth or viability", "method": "MTT", "IC50 [µM]": "> 20"}
{"SMILES": "CO[C@@]12[C@H](COC(N)=O)C3=C(C(=O)C(C)=C(N)C3=O)N1C[C@@H]1N[C@@H]12", "effect on": "cell growth or viability", "time": "24 h", "IC50 [µM]": 2.41}
